# Published values gathered from unrelated publications.
# Lines come from different studies, so protocols differ.
# Target: 5-hydroxytryptamine receptor 2B (HTR2B, Homo sapiens, UniProt P41595)
# Chain of UniProt P41595 (whole entry, looked up): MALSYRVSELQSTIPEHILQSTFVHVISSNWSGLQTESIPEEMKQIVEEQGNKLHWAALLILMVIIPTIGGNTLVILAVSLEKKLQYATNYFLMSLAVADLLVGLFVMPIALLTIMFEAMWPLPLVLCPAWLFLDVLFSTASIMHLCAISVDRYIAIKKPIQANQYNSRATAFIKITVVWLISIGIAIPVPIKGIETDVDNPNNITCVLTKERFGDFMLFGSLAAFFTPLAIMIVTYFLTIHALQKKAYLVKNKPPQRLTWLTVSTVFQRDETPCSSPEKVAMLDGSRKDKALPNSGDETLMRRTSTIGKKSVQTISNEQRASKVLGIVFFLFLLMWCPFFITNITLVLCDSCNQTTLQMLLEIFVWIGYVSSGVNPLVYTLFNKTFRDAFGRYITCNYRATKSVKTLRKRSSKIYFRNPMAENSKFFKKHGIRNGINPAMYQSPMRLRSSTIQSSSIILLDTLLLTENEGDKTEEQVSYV
test,system,setting,endpoint,value,SMILES
cell-free assay,,10 µM,inhibition,24%,COCC(=O)N1CCc2cc(-c3csc(NC(=O)c4cc(OC)cc(OC)c4)n3)ccc21
radioligand binding,,"concentration not given, with: [3H]LSD",inhibition,84.6%,Cc1ccnc(OC[C@H]2CN(CCN3CCc4ccccc43)CCO2)c1
"ligand displacement, radioligand",,10 µM,inhibition,92%,Cn1ccc2cc(-n3c(=O)[nH]c4sc5c(c4c3=O)CCCC5)ccc21
"agonist response, antagonist",human cells,"10 µM, 5-HT2B antagonist",inhibition,37%,CNC(=O)C[C@H](Cc1ccc(C#N)cc1)NC(=O)c1cc(-c2ccc(CN[C@H](C)c3ccc(C)cc3)o2)ccc1Cl
"ligand displacement, radioligand",,10 µM,inhibition,68%,CO[C@@H](C)c1c(NC(=O)Nc2cnc(-n3nccn3)c(C(F)(F)F)c2)cnc2sc(C)nc12
"ligand displacement, radioligand",,70 µM,inhibition,6%,C[Si]1(C[C@H](CN)CC(=O)O)CCCC1
ligand displacement,,10 µM,inhibition,72%,Cc1cccc(O[C@H]2CCC[C@@H](C(C)CNCc3ccncc3)C2)c1 (relative stereo)
"calcium signal, agonist, fluorescence",,,Emax,6.9%,c1ccc(OC[C@H]2CN(CCN3CCc4ccccc43)CCO2)nc1
"antagonist, cell-based",,10 µM,inhibition,-12.6%,COc1ncc2nc(C)n(Cc3ncc(S(N)(=O)=O)cc3F)c2c1-c1ccccc1
"ligand displacement, radioligand",,10 µM,inhibition,2%,CC(C)Cn1c(SCC(=O)N2CCc3ccccc3C2)nc2cc(Cl)ccc2c1=O
radioligand binding,,"concentration not given, with: [3H]LSD",inhibition,80%,CC1Cc2ccccc2N1C(=O)CN1CCN(Cc2ccccc2)CC1 (stereo not shown)
"ligand displacement, radioligand",,1 µM,inhibition,-7%,O=C1c2sc(-c3ccc(N4CCC(F)C4)nc3F)nc2CCN1c1cccnc1 (stereo not shown)
"ligand displacement, radioligand",,250 µM,inhibition,-14%,C[Si](C)(C)C[C@H](CN)CC(=O)O
cell-free assay,,10 µM,inhibition,3%,Cc1[nH]nc2c1N=C(c1ccccc1Cl)c1cnc(N3CCOCC3)cc1N2
radioligand binding,,"concentration not given, with: [3H]LSD",inhibition,74.6%,O=C(CN1CCO[C@@H](COc2cccc(Cl)c2)C1)N1CCc2ccccc21
"ligand displacement, radioligand",,10 µM,inhibition,< 50%,COc1ccc(C(=O)Nc2c(-c3cccs3)nc3ccccn23)cc1

# A few entries again:
test,system,setting,endpoint,value,SMILES
radioligand binding,,"concentration not given, with: [3H]LSD",inhibition,80%,CC1Cc2ccccc2N1C(=O)CN1CCN(Cc2ccccc2)CC1 (stereo not shown)
"ligand displacement, radioligand",,1 µM,inhibition,-7%,O=C1c2sc(-c3ccc(N4CCC(F)C4)nc3F)nc2CCN1c1cccnc1 (stereo not shown)
